# Published values gathered from unrelated publications.
# Lines come from different studies, so protocols differ.
# Chain of UniProt P0C264 (whole entry, looked up): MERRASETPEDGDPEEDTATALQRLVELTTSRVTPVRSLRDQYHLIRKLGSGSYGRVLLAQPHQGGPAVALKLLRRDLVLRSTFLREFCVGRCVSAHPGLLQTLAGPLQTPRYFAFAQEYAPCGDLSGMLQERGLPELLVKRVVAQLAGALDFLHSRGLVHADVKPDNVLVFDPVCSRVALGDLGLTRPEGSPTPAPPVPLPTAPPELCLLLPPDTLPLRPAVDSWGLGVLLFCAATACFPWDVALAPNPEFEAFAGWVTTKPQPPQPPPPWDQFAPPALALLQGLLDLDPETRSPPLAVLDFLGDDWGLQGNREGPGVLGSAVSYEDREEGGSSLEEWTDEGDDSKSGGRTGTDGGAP
Compound,target or system,assay,setting,endpoint,value
COc1cc(-c2nc3ccccc3c(=O)n2Nc2ccc([N+](=O)[O-])cc2[N+](=O)[O-])ccc1OCc1cn(CC(=O)Nc2ccc(C)cc2C)nn1,,"DPPH scavenging, absorbance",100 µM,inhibition,27.5%
CCN(O)N=Nc1ccc(S(=O)(=O)Nc2cc(C)on2)cc1,,"DPPH scavenging, absorbance",120 µg/mL,inhibition,28.6%
COc1cc(-c2nc3ccccc3c(=O)n2Nc2ccc([N+](=O)[O-])cc2[N+](=O)[O-])ccc1OCc1cn(CC(=O)Nc2ccccc2)nn1,,"DPPH scavenging, absorbance",100 µM,inhibition,16%
O=C1O[C@H]([C@@H](O)CO)C(O)=C1O,,DPPH scavenging,250 µg/mL,inhibition,62.1%
COc1cc(-c2nc3ccccc3c(=O)n2Nc2ccc([N+](=O)[O-])cc2[N+](=O)[O-])ccc1OCc1cn(CC(=O)Nc2cccc(C)c2)nn1,,"DPPH scavenging, absorbance",100 µM,inhibition,24.3%
CCCCC(=O)Nc1ccc(-c2ccc3ncn(CCC)c(=O)c3c2)cn1,"SBK3 (Homo sapiens, UniProt P0C264)","binding, competition with immobilised ligand",0.5 µM,remaining binding,100%
CCCCCCCCCCCCCCCC1NCCc2cc(O)c(O)cc21 (centres unmarked),,ABTS scavenging,"10 min, dark",IC50,36.6 µM
COc1cc(-c2nc3ccccc3c(=O)n2Nc2ccc([N+](=O)[O-])cc2[N+](=O)[O-])ccc1OCc1cn(CC(=O)Nc2cccc(Cl)c2)nn1,,"DPPH scavenging, absorbance",100 µM,inhibition,24.1%
Cc1noc(NS(=O)(=O)c2ccc(N=NN(C)O)cc2)c1C,,"DPPH scavenging, absorbance",240 µg/mL,inhibition,24.4%
CCCCCCCCCCCCCCCCCC1NCCc2cc(O)c(O)cc21 (centres unmarked),,ABTS scavenging,"10 min, dark",IC50,24.5 µM
O=S(=O)(Nc1nccs1)c1ccc(N=NN(O)c2ccccc2)cc1,,"DPPH scavenging, absorbance",240 µg/mL,inhibition,36.6%
CCCCCC1NCCc2cc(O)c(O)cc21 (centres unmarked),,ABTS scavenging,"10 min, dark",IC50,52.2 µM
Cc1noc(NS(=O)(=O)c2ccc(N=NN(O)c3ccccc3)cc2)c1C,,"DPPH scavenging, absorbance",300 µg/mL,inhibition,30.8%
CC(C)=CC1NCCc2cc(O)c(O)cc21 (centres unmarked),,ABTS scavenging,"10 min, dark",IC50,10.3 µM

# A few entries again:
Compound,target or system,assay,setting,endpoint,value
O=C1O[C@H]([C@@H](O)CO)C(O)=C1O,,DPPH scavenging,250 µg/mL,inhibition,62.1%
Cc1noc(NS(=O)(=O)c2ccc(N=NN(O)c3ccccc3)cc2)c1C,,"DPPH scavenging, absorbance",300 µg/mL,inhibition,30.8%
